Measurements pooled from the literature.
Numbered parts are unrelated; each lists some results of a single study.
Chain of UniProt O15294 (whole entry, looked up): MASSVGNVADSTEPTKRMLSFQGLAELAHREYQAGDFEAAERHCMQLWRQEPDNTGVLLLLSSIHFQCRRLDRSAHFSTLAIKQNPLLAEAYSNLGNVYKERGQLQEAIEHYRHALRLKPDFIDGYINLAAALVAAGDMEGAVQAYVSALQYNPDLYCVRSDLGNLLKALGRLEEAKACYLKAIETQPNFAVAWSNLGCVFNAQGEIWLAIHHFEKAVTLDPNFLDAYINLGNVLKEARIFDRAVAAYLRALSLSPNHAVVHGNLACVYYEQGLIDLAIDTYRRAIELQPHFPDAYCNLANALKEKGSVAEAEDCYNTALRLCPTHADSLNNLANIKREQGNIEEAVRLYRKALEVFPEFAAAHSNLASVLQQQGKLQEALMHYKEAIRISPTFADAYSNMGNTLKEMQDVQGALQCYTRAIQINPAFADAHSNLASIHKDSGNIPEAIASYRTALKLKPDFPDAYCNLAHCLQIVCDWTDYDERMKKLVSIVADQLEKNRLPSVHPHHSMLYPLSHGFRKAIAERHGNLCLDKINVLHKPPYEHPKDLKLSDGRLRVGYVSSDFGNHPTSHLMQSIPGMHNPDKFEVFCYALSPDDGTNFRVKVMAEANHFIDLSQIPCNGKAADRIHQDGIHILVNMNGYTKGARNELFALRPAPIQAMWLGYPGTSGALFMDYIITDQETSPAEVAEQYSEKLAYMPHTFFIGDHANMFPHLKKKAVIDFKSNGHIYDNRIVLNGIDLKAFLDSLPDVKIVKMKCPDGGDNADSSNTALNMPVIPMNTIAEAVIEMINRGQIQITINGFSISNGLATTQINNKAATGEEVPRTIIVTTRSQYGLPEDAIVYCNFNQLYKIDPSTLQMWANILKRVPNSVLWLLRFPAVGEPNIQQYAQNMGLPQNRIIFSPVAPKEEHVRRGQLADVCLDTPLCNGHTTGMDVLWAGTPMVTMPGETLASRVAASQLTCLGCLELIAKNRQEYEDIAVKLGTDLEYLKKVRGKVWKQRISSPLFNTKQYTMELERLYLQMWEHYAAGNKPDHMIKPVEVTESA

Block 1
Target: Histone acetyltransferase KAT6A, both winged helices, GST fusion (KAT6A, Homo sapiens, UniProt Q92794, residues 1-181)
Method: protein binding microarray
Form: double-stranded DNA, one strand shown
Matrix: in vitro
Tested at: not given
Setting: 8-mer, flanks averaged, mean of 2 arrays, mostly near background
Relative to: not given
Direction: higher = stronger binding
Target sequence (chain): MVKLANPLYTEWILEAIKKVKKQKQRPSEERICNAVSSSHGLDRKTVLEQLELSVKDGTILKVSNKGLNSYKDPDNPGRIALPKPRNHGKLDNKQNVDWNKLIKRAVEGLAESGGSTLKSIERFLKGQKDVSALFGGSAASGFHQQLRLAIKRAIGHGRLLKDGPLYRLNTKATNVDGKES
| Strand | E-score |
| --- | --- |
| AATTAAGG | -0.187 |
| GCAGGCGC | 0.205 |
| AGCGTTCG | 0.0196 |
| ATCTGTCG | 0.0753 |
| CCATGACC | -0.046 |
| ATCTCAAG | -0.209 |
| ATTGAGAA | -0.103 |
| GCACATAC | 0.0646 |

Block 2
Target: Sox-I, HMG box (Salpingoeca helianthica)
Method: Spec-seq
Form: double-stranded DNA, one strand shown
Matrix: in vitro
Tested at: not given
Setting: whole probe, mean of replicates
Relative to: not given
Direction: lower = stronger binding
All sequences stand within: GAGTCGTCTCGTCAGCAC … CCGTAGAGCACTCAGGTC
Residues (chain): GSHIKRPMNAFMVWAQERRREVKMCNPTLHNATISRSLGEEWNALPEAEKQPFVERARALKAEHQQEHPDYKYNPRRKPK
| Strand | relative binding energy |
| --- | --- |
| GCCCGTT | 0.265 ln ratio |
| GCGCGTT | 1.05 ln ratio |
| ATTGGTT | 0.0926 ln ratio |
| ACTCGTT | 0.172 ln ratio |
| CATCTGT | 0.346 ln ratio |
| CATCAGA | 0.834 ln ratio |
| CATGTAT | 0.878 ln ratio |
| CCGTGTT | 0.131 ln ratio |

Block 3
Target: PABPC1L2, full length, GST fusion (mouse, UniProt A0ABA7IW68)
Method: RNAcompete
Form: RNA
Matrix: in vitro
Tested at: 20 nM
Setting: 7-mer, probes averaged, single round
Relative to: mean of 7-mers
Direction: higher = stronger binding
Residues (chain): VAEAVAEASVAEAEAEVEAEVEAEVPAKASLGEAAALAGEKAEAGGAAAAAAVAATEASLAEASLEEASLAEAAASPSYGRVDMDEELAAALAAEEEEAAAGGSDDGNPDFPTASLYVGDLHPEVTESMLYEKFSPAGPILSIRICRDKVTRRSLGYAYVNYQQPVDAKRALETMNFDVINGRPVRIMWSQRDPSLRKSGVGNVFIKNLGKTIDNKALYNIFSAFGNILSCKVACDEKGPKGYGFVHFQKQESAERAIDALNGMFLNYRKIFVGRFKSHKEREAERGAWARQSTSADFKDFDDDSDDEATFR
| Strand | 7-mer Z-score |
| --- | --- |
| ACCUUCA | -0.233 |
| UUCCUCC | -0.438 |
| CAACGAU | 0.0279 |
| CGAAAUC | -0.0808 |
| AAGACCU | 0.175 |
| CUGGGUC | -0.219 |
| AUGGUUC | -0.229 |
| GCUAAAA | 3.1 |

Mixed results
| Sequence | target | assay | test system | setting | scale | endpoint | result |
| --- | --- | --- | --- | --- | --- | --- | --- |
| VYSPVYQIIVNQNH | UDP-N-acetylglucosamine--peptide N-acetylglucosaminyltransferase 110 kDa subunit (OGT, Homo sapiens, UniProt O15294) | binding, phage display NGS | peptide | concentration not given | relative to: input library | enrichment fold change | 10.7 |

Some of these lines once more (block 2):
| Strand | relative binding energy |
| --- | --- |
| CATGTAT | 0.878 ln ratio |
| CCGTGTT | 0.131 ln ratio |
